Assay results collected from several papers.
Protocols differ between the studies behind these lines. Values joined by “and” are separate records of one study, mostly repeats; a detail may differ. Numbers after ± are the reported error.

NC(=O)c1ccc[n+]([C@@H]2O[C@H](COP(=O)([O-])OP(=O)(O)OC[C@H]3O[C@@H](n4cnc5c(N)ncnc54)[C@H](O)[C@@H]3O)[C@@H](O)[C@H]2O)c1  log2 fold change (binding, MIDAS equilibrium dialysis LC-MS; A2AR-BRIL thermostabilized; concentration not given; relative to: no-protein control): -0.207
Cc1n[nH]c2ccc(-c3cc(OC[C@@H](N)Cc4ccccc4)cnc3-c3ccoc3)cc12  log2 fold change (kinase binding, competitor, MIB/MS competition, measured: CKA1; Candida albicans cell lysate; 100 nM; relative to: DMSO): -0.241
C[C@@H](NC(=O)N1C(=O)[C@H](Cc2ccnc(N)c2)[C@H]1C(=O)O)C1CCCCC1  aPTT AUEC (human; iv infusion, 0.6 mg/kg/h, 24 h, unit not given; relative to: baseline): 177
Cc1ccc2c(c1)C(=O)[C@]1(O)CCN(c3ccc4nc(C)ccc4c3)C1=N2.Cl  nuclear area increase (mouse, Trp53-/- tumour, tumour H&E sections; intraperitoneal, 10 mg/kg daily, 336 h): 53%
Cc1cc([C@H]2C[C@H]3[C@@H](C)SC(N)=N[C@@]3(c3ccc(F)cc3F)CO2)on1  Aβ40 level (measured: Aβx-40; Mus musculus wild-type, cerebrospinal fluid; subcutaneous, 50 mg/kg, 9 h): 0.55 ng/mL
CCCCCN1C[C@H](O)[C@@H](O)[C@H](O)[C@@H]1CO  genomic disease score (RNA sequencing, measured: Hallmark apoptosis genes; Hexb-/- mouse, hippocampus; 300 mg/kg/day; direction not given): 0.62
N[C@@H](Cc1c[nH]c2ccccc12)C(=O)O  log2 fold change (binding, MIDAS equilibrium dialysis LC-MS; A2AR-BRIL thermostabilized; concentration not given; relative to: no-protein control): 0.177
Cc1coc([C@H]2C[C@H]3[C@@H](CF)SC(N)=N[C@@]3(c3ccc(F)cc3F)CO2)n1  brain Aβ40 level (measured: Aβx-40; wild-type mouse, brain; subcutaneous, 80 mg/kg, 7 h): 2.14 ng/g
COc1cc(Nc2ncc3c(n2)-c2ccc(Cl)cc2C(c2c(F)cccc2OC)=NC3)ccc1C(=O)O  median response score (female NOD/scid mice, ALL-2 B-precursor ALL xenograft; 20.8 mg/kg, 5 days weekly, score scale 0 to 10; direction not given): 10
COc1ncc(-c2nc3c(n2C(C)C)[C@H](c2ccc(Cl)cc2)N(c2cc(Cl)cn(C)c2=O)C3=O)c(OC)n1  best overall response (International Working Group criteria; human acute myeloid leukemia patients; oral, 120 mg, response CR, high-dose, recommended dose for expansion): 4.2%
O=C1O[C@H]([C@@H](O)CO)[C@H](O)[C@@H]1O  log2 fold change (binding, MIDAS equilibrium dialysis LC-MS; A2AR-BRIL thermostabilized; concentration not given; relative to: no-protein control): 0.0216
N#Cc1ccn2c(-c3ccncc3)c(-c3ccc(F)cc3)nc2c1  log2 fold change (kinase binding, competitor, MIB/MS competition, measured: YCK2; Candida albicans cell lysate; 10 µM; relative to: DMSO): -4.4
C[C@H](Oc1ccc(Br)cc1-c1ccon1)C(=O)O  peak amplitude change (muscle velocity recovery cycles; human, tibialis anterior muscle; 1200 mg single dose, 3.5 h post-dose, frequency ramp, first response at 30 Hz): 120%
NC(=O)c1cnc2[nH]ccc2c1N[C@@H]1[C@@H]2CC3C[C@H]1C[C@@](O)(C3)C2  change from baseline (flow cytometry, measured: memory T cells (CD3+ CD45RA-); Japanese healthy subjects, peripheral blood; oral, 100 mg twice daily, day 4): -0.93%
N#CC[C@H](C1CCCC1)n1cc(-c2ncnc3[nH]ccc23)cn1  plasma TNF-alpha difference (mouse, human PBMC GvHD model, plasma; 50 mg/kg once daily, unit not given; relative to: vehicle): -0.67
CC(C)NCC(O)c1ccc(O)c(O)c1 (centres unmarked)  sarcomere length (ventricular cardiomyocytes, C57BL/6 mouse; dose not given, 0.664 s): 1.72 µm
OC(CCN1CCCCC1)(c1ccccc1)C1CC2C=CC1C2 (centres unmarked)  change in EEG Beta2-power Fz-Cz (resting-state EEG; healthy elderly humans; oral, 4 mg, eyes open, LS mean; relative to: baseline): 0.4%
N#C/C(=C\c1ccccc1)n1cncn1  β-elimination rate constant (pH 7.4): 0.009 min⁻¹
Cc1cc([C@H]2C[C@H]3[C@@H](CF)SC(N)=N[C@@]3(c3ccc(F)cc3F)CO2)on1  Aβ40 level (measured: Aβx-40; Mus musculus wild-type, cerebrospinal fluid; subcutaneous, 100 mg/kg, 3 h): 0.2 ng/mL
O=C1CCc2ccc(OCCCCN3CCN(c4cccc(Cl)c4Cl)CC3)cc2N1  treatment discontinuation (stop or switch frequency; human patients, CYP2D6 ultrarapid metabolizers; dose not given, 12 months, genetic phenotype only): 52%
Cn1cc(Nc2nccc(-c3ccc4c(c3)CN(C3COC3)CC[C@H]4NC(=O)c3cn(C(C)(C)C)nn3)n2)cn1  pathway activation z-score (measured: Hepatic Fibrosis Signaling Pathway; splenic B cells, mouse; in vivo, 30 mg/kg, IgD-activated B cells; relative to: vehicle, positive = activation): 2.65
Cc1cn(C(=O)c2c(-c3c(Cl)cc(Cl)cc3Cl)noc2C(C)(C)F)c2cccc(/C=C/C(=O)O)c12  D-2-hydroxyglutarate concentration (LC-MS/MS; human, resected tumour tissue, multiple samplings; 125 mg twice daily, end of treatment): 22 pmol/mg and 21 pmol/mg and 15 pmol/mg
N#Cc1ccc2c(c1)[C@H]1CCCN(C(=O)c3ccc4[nH]cnc4c3)[C@H]1C2  change from baseline (measured: FPG; human; 240 mg once daily, day 28, adjusted mean): 6.8 mg/dL
C[C@H](CS)C(=O)N1CCC[C@H]1C(=O)O  Met-enkephalin concentration (LC-MS/MS, measured: extracellular Met-enkephalin; mouse striatal brain slices; 10 µM, 20 min, together with: 50 mM KCl): 4030 pM and 2730 pM and 1470 pM and 2790 pM and 2290 pM and 1620 pM
CC(C)c1c(C(=O)Nc2ccccc2)c(-c2ccccc2)c(-c2ccc(F)cc2)n1CC[C@@H](O)C[C@@H](O)CC(=O)O  HDL-C (cynomolgus monkey, male, serum; 40 mg/kg or 25 mg/kg, day 86, 2064 h): 46.4 mg/dL
O=C(O)CNC(=O)Cc1ccccc1  sarcomere length (ventricular cardiomyocytes, C57BL/6 mouse; dose not given, 0.12 s): 1.71 µm
C[C@@H]1CCC[C@H](n2cnc(-c3cc(Cl)ccc3-n3cc(Cl)nn3)cc2=O)c2cc(ccn2)-c2c(cnn2C(F)F)NC1=O  concentration for aPTT prolongation (dog plasma; IC2.5× aPTT, Actin FS reagent): 4 µM
Oc1ccc(Br)cc1C=NCCN1CCOCC1  ferric reducing power (FRAP; 120 µM): 22.6%
C=CCn1c(=O)c2cnc(Nc3ccc(N4CCN(C)CC4)cc3)nc2n1-c1ccc2c(n1)[C@@](O)(CC)CC2  γH2AX level (immunohistochemistry; mouse, A-427 xenograft, tumour; 20 to 80 mg/kg once daily, 3 days; relative to: vehicle): increased
NCC(=O)Nc1cncc(-c2nn3c(=O)cc(N4CCNCC4)nc3s2)c1  inhibition of platelet aggregation (ADP-induced platelet aggregation, light transmission aggregometry; human stable CAD patients on aspirin, platelets ex vivo; 0.05 mg/kg, 120 min post dose, together with: 20 µM ADP; relative to: placebo difference): 13.4%
N#Cc1ccc2c(c1)[C@H]1CCCN(C(=O)c3ccc4[nH]cnc4c3)[C@H]1C2  total urinary corticosteroids (human, urine; 240 mg, 24 h, day 1 over day -1; relative to: placebo and baseline): 81.8 % change
CN(C)C(=O)c1cc2cnc(Nc3ccc(N4CCNCC4)cn3)nc2n1C1CCCC1  normalized enrichment score (RNA-seq GSEA, measured: HALLMARK_APOPTOSIS; MB002 tumour; concentration not given, in vivo; relative to: vehicle, direction not given): -1.14
c1ccc(-c2n[nH]cc2-c2ccnc3ccccc23)nc1  log2 fold change (kinase binding, competitor, MIB/MS competition, measured: SHA3; Candida albicans cell lysate; 10 µM; relative to: DMSO): 0.845
CC(C)=CC(=O)O  log2 fold change (binding, MIDAS equilibrium dialysis LC-MS; A2AR-BRIL thermostabilized; concentration not given; relative to: no-protein control): -0.286
CC(Cc1ccc(O)c(O)c1)C(C)Cc1ccc(O)c(O)c1 (centres unmarked)  DPPH radical scavenging (DPPH; methanol; concentration not given, 30 min): 86.99 ± 0.06%
Cc1cn([C@H]2C[C@H](O)[C@@H](CO)O2)c(=O)[nH]c1=O  log2 fold change (binding, MIDAS equilibrium dialysis LC-MS; A2AR-BRIL thermostabilized; concentration not given; relative to: no-protein control): -0.0926
CC(=O)Oc1cc2c(s1)CCN(C(C(=O)C1CC1)c1ccccc1F)C2 (centres unmarked)  patients with IPA above 90% (platelet aggregation, light transmission aggregometry; human patients, platelet-rich plasma; dose not given, 3 h, together with: TRAP 5 µM): 9.5%
CC(c1cc2ccccc2s1)N(O)C(N)=O (centres unmarked)  amount (measured: eicosapentaenoic acid; human whole blood; 3 µM, together with: Escherichia coli): 67100 ± 10700 pg/mL blood
O=P(O)(O)C(Cl)(Cl)P(=O)(O)O  distance travelled (open field test; UT+/+ and UT-/- mice, SAH; 23000 µg/mL): 29 m and 25 m and 27 m and 31 m
C[C@H]1C[C@H]2CSC(N)=N[C@@]2(c2nc(NC(=O)c3ccc(OC(F)F)cn3)cs2)CO1  percent change from baseline (measured: Aβ1-40; healthy adults, plasma; 50 mg once daily, day 14; relative to: placebo): -86.2%
CC(C)(C)c1sc2ncnc(Oc3c(F)cccc3OC(F)(F)F)c2c1-c1ccc(Cl)cc1  antihyperalgesia (paw withdrawal latency; MrgprX1 mice, CCI model; oral, 100 mg/kg, 2 h, day 14 post-CCI, heat hyperalgesia): > 100%
CO[C@H]1CC[C@H](N2C(=O)CNc3ncc(-c4ccc(C(C)(C)O)nc4)nc32)CC1  pS6RP change from baseline (flow cytometry; stimulated B cells, human, blood; 45 mg single dose, 5 h, median; relative to: baseline): -73.5%
O[C@H]1[C@H](O)[C@@H](O)[C@H](O)[C@@H](O)[C@H]1O  log2 fold change (binding, MIDAS equilibrium dialysis LC-MS; A2AR-BRIL thermostabilized; concentration not given; relative to: no-protein control): -0.682
CC1(C)CCC(CN2CCN(c3ccc(C(=O)NS(=O)(=O)c4ccc(NCC5CCOCC5)c([N+](=O)[O-])c4)c(Oc4cnc5[nH]ccc5c4)c3)CC2)=C(c2ccc(Cl)cc2)C1  EC50 (cell killing; primary canine neoplastic T cells, dog 19; 24 h): 50 nM
O=C(O)c1cc(Cl)ccc1S(=O)(=O)NCCCCN1C(=O)c2cccc3cccc(c23)C1=O  surviving enteroids (mouse small intestinal enteroids; 1 µM, day 1, 24 h pretreatment, together with: 5 Gy irradiation): 83.7%
Cn1cc(Nc2nc(N)nc(-c3cccc(-n4ccc5cc(C6CC6)cc(F)c5c4=O)c3CO)n2)cn1  inhibition (CD63 upregulation, anti-IgE-induced; human, multiple ascending dose, whole blood basophils ex vivo; 50 mg twice daily, day 14, 1 h): 61.6%
O=C(O)C(O)c1ccc(O)c(O)c1 (racemic)  log2 fold change (binding, MIDAS equilibrium dialysis LC-MS; A2AR-BRIL thermostabilized; concentration not given; relative to: no-protein control): -0.546
CSCCNc1nc(SCCC(F)(F)F)nc2c1ncn2[C@@H]1O[C@H](COP(=O)(O)OP(=O)(O)C(Cl)(Cl)P(=O)(O)O)[C@@H](O)[C@H]1O  patients with IPA above threshold (platelet aggregation, light transmittance aggregometry; human, platelet-rich plasma; dose not given, 15 min, IPA above 80 %, together with: TRAP 15 µM; relative to: patients): 0%
N[C@@H](CC(=O)O)C(=O)N[C@@H](Cc1ccccc1)C(=O)O  log2 fold change (binding, MIDAS equilibrium dialysis LC-MS; A2AR-BRIL thermostabilized; concentration not given; relative to: no-protein control): -0.217
FC(F)(F)Oc1cccc(-c2cnc3ccc(-c4ccncc4)nn23)c1  tumour size (MDA-MB-231 xenograft, NSG mouse; oral, 10 mg/kg daily, day 5; higher = larger tumour): 0.04 a.u. and 0.0506 a.u. and 0.0907 a.u. and 0.0557 a.u. and 0.0245 a.u.

Excerpt of the above:
Cc1cc([C@H]2C[C@H]3[C@@H](CF)SC(N)=N[C@@]3(c3ccc(F)cc3F)CO2)on1  Aβ40 level (measured: Aβx-40; Mus musculus wild-type, cerebrospinal fluid; subcutaneous, 100 mg/kg, 3 h): 0.2 ng/mL
O=C1CCc2ccc(OCCCCN3CCN(c4cccc(Cl)c4Cl)CC3)cc2N1  treatment discontinuation (stop or switch frequency; human patients, CYP2D6 ultrarapid metabolizers; dose not given, 12 months, genetic phenotype only): 52%
Cn1cc(Nc2nccc(-c3ccc4c(c3)CN(C3COC3)CC[C@H]4NC(=O)c3cn(C(C)(C)C)nn3)n2)cn1  pathway activation z-score (measured: Hepatic Fibrosis Signaling Pathway; splenic B cells, mouse; in vivo, 30 mg/kg, IgD-activated B cells; relative to: vehicle, positive = activation): 2.65
